Measurements gathered from unrelated publications.
Protocols differ between the studies behind these lines. “And” joins repeats or separate records; there may be more than shown. ± marks the error that the study gave.
WD repeat-containing protein 91 WD40 domain, residues 392–747: WD repeat-containing protein 91, WD40 domain, residues 392–747 (Homo sapiens, UniProt A4D1P6)
Genome polyprotein NS3 helicase domain: Genome polyprotein, NS3 helicase domain (Hepatitis C virus genotype 1b, UniProt Q9WMX2)
ESR1: Estrogen receptor (ESR1, Homo sapiens, UniProt P03372)
Sequence of UniProt P03372 (whole entry, looked up): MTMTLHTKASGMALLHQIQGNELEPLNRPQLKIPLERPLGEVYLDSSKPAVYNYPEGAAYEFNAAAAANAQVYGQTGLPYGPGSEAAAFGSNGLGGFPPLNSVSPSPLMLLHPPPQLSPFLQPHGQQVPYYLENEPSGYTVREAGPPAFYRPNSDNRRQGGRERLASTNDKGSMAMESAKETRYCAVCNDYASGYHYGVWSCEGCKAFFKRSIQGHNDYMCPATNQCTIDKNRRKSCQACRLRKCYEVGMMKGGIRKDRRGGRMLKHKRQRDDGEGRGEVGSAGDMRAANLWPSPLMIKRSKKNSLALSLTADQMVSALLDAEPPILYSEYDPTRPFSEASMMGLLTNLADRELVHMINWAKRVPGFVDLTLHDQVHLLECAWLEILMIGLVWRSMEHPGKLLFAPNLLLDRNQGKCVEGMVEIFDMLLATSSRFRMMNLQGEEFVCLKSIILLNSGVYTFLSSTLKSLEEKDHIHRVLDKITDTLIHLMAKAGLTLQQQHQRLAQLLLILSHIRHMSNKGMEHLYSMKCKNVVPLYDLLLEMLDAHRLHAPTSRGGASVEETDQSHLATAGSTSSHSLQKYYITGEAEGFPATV
Sequence of UniProt P51575 (whole entry, unmodified, looked up): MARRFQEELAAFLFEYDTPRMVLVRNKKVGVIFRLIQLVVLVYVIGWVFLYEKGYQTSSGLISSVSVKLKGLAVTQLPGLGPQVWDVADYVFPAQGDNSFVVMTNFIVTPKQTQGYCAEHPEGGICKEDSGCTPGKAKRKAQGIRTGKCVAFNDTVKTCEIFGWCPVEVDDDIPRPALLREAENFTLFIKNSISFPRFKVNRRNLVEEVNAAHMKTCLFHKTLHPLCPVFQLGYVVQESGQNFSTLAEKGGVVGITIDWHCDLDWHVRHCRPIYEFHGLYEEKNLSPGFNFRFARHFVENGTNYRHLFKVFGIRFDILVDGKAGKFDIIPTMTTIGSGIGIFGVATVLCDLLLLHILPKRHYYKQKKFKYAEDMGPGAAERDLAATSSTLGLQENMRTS
Sequence of UniProt Q64663 (whole entry, unmodified, looked up): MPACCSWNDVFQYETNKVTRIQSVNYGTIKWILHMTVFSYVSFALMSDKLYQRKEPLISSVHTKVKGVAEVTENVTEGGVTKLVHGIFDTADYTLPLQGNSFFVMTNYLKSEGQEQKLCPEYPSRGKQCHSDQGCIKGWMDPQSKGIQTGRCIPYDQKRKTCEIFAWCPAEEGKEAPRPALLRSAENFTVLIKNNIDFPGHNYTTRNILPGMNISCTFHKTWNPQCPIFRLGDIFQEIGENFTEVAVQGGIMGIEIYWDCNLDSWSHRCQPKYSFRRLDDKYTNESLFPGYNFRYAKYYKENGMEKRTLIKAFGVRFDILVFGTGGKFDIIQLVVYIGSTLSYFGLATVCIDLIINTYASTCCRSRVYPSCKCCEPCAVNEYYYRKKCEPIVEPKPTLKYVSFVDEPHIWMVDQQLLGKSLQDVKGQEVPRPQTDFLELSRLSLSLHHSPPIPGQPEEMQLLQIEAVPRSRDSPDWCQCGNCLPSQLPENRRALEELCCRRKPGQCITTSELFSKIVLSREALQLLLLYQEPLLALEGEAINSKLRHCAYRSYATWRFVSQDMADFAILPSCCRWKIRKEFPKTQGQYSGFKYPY
Sequence of UniProt Q99619 (whole entry, looked up): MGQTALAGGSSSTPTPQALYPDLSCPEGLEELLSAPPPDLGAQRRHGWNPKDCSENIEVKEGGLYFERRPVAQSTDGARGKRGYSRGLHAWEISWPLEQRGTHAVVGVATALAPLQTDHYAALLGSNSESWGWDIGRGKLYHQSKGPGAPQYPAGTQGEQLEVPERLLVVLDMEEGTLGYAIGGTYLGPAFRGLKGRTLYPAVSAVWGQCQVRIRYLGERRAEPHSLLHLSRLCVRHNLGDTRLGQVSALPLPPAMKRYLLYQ
Sequence of UniProt P02754 (whole entry, looked up): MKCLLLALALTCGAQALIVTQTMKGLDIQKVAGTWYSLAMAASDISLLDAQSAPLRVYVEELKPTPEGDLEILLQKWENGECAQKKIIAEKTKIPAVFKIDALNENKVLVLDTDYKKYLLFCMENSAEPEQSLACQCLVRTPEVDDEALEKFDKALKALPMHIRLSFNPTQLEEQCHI

For O=C(O)c1ccc(Nc2ncc3c(n2)-c2ccc(Cl)cc2C(c2c(F)cccc2F)=NC3)cc1, the remaining activity was 83% (CHK2(h); kinase activity; 1 µM).
N#Cc1cccc(OCc2cn(-c3ccc(C(=O)N4CCC(C#N)CC4)cc3)nn2)c1 gave a binding of 51% and 47% (WD repeat-containing protein 91, residues 392–747 (Homo sapiens, UniProt A4D1P6); SPR dose-response titration; concentration not given, 1:1 binding model).
For O=c1ccn([C@@H]2O[C@H](COP(=O)(O)OP(=O)(O)O)[C@@H](O)[C@H]2O)c(=O)[nH]1, the koff was 1050 ± 60 s⁻¹ (Histo-blood group ABO system transferase (ABO, Homo sapiens, UniProt P16442, G235S/G268A/L266M/R176G/W181M); methyl-TROSY NMR titration lineshape analysis; apo mutant enzyme).
COc1cc(/C=C/C(=O)C(=Cc2ccc([N+](=O)[O-])cc2)C(=O)/C=C/c2ccc(O)c(OC)c2)ccc1O has a ΔG of -33.5 ± 1.85 kJ/mol (haemin; binding, isothermal titration calorimetry; pH 7.4, 37 °C).
With O=c1nc(SCc2ccc(C(F)(F)F)cc2)nc(SCc2csc3ccc(Cl)cc23)[nH]1 the decatenated DNA was 98.5% (DNA topoisomerase 2-alpha (TOP2A, Homo sapiens, UniProt P11388); decatenation; 7.8 µM, replicate 1).
For Cc1ccc(C(O)c2cn(-c3ccc(C(=O)N4CCC(C#N)CC4)cc3)nn2)cc1 (stereo not drawn), the binding was -8% and -1% (WD repeat-containing protein 91 WD40 domain, residues 392–747; SPR; 45 µM).
The fold enrichment of CC1(C)CC2(C)OC(=O)NC2(C)c2ccccc21 (stereo not drawn) is reported as 1.1 (SPRY domain-containing SOCS box protein 2, SPRY domain (Homo sapiens, UniProt Q99619); binding, affinity selection mass spectrometry; reference: other proteins in batch).
Nc1ncnc2c1ncn2[C@@H]1O[C@H](COP(=O)(O)OP(=O)(O)OP(=O)(O)O)[C@@H](O)[C@H]1O has a normalized current of 0 and 0.0187 (P2X purinoceptor 7 (P2rx7, Rattus norvegicus, UniProt Q64663, I214A/Q143A/R125A); ion current, agonist, two-electrode voltage clamp; Xenopus oocytes; 11.1 µM).
The ΔH of CC[C@H](C)[C@H](NC(=O)[C@H](CCSC)NC(=O)[C@H](CCSC)NC(=O)[C@H](C)NC(=O)[C@H](C)NC(=O)[C@H](Cc1ccc(O)cc1)NC(=O)[C@H](C)NC(=O)[C@H](CCCCN)NC(=O)CNC(=O)[C@@H](NC(=O)[C@@H](NC(=O)[C@H](CCSC)NC(=O)[C@H](Cc1c[nH]cn1)NC(=O)CN)[C@@H](C)O)C(C)C)C(=O)N[C@@H](CCSC)C(=O)N[C@@H](CCC(=O)O)C(=O)N[C@@H](Cc1ccc(O)cc1)C(=O)N[C@@H](Cc1ccc(O)cc1)C(=O)N[C@@H](CCCNC(=N)N)C(=O)N[C@@H](CCC(N)=O)C(=O)N[C@@H](CO)C(=O)N[C@@H](CCCCN)C(=O)N[C@@H](C)C(=O)N[C@@H](CCCCN)C(=O)N[C@@H](CCCCN)C(=O)N[C@@H](CC(C)C)C(=O)N[C@@H](CCC(N)=O)C(=O)N[C@@H](C)C(=O)N[C@@H](CCSC)C(=O)N[C@@H](CCCNC(=N)N)C(=O)O is reported as -4.15 ± 0.05 kcal/mol (Calmodulin-1, Ca2+-bound N-lobe (CALM1, Homo sapiens, UniProt P0DP23); binding, isothermal titration calorimetry; pH 7.4, 15 °C, N-lobe, CaV2.1 IQ domain, together with: Ca2+).
Cc1ccc(NC(=O)/C=C/c2cccs2)cc1: potentiation “inactive” (Voltage-dependent N-type calcium channel subunit alpha-1B (Homo sapiens, UniProt Q00975); potentiator; HEK293T; concentration not given).
With CCN1CCCC1CNC(=O)c1cc(S(N)(=O)=O)ccc1OC (stereo not drawn) the maximal inhibition was 99 ± 2% (D(3) dopamine receptor (DRD3, Homo sapiens, UniProt P35462); cAMP accumulation, antagonist, BRET CAMYEL).
With Cn1c(=O)c2[nH]cnc2n(C)c1=O the potentiation was 101% (Glutamate receptor 2 (Homo sapiens, UniProt P42262); ion current, positive allosteric modulator, SyncroPatch patch clamp; HEK293; 3 µM).
CC(C)OCCn1c(=S)[nH]c(=O)c2[nH]ccc21 gave an H2O2 concentration of -1.15 µM (Myeloperoxidase (MPO, Homo sapiens, UniProt P05164); H2O2 consumption, inhibitor, H2O2 electrode; 0.45 µM, 0.1 s).
With N#Cc1ccc(Nc2cccc(C(=O)NC3CCc4cc(F)ccc43)c2)cc1 (stereo not drawn) the SPR response was 27.4 RU and 35.9 RU (WD repeat-containing protein 91 WD40 domain, residues 392–747; binding, SPR single-concentration screen; 45 µM).
CC[C@H]1CN2CCc3cc(OC)c(OC)cc3[C@@H]2C[C@@H]1C[C@H]1NCCc2cc(OC)c(OC)cc21 gave an inhibition of 2% (Genome polyprotein NS3 helicase domain; DNA binding, inhibitor; hepatitis C virus; 100 µM, together with: Cy5-dT15 DNA).
For CCCc1cc(=O)oc2cc(OCc3cc(=O)c(O)co3)ccc12, the β-Turn content was 16.9% (PPO3 (Agaricus bisporus, UniProt C7FF04); secondary structure of tyrosinase, CD spectroscopy; molar ratio 1:1).
The remaining binding of C=CC(=O)N1CCC(COCC(=O)N2CCN(c3nc(-c4cnc(N)nc4C(F)F)nc(N4CCOC[C@@H]4C)n3)CC2)CC1 is reported as 100% (Serine/threonine-protein kinase MRCK alpha (CDC42BPA, Homo sapiens, UniProt Q5VT25); KINOMEscan; 1 µM).
For Nc1ncnc2c1ncn2[C@@H]1O[C@H](COP(=O)(O)CP(=O)(O)OP(=O)(O)O)[C@@H](O)[C@H]1O, the calcium influx was 2.23% and 0% and 3% (P2X purinoceptor 1 (P2RX1, Homo sapiens, UniProt P51575, K215A); calcium influx; 10 nM; reference: ionomycin response).
CCN(CC)CCOc1ccc2c(c1)C(=O)c1cc(OCCN(CC)CC)ccc1-2 gave a curve bottom of -7 % inhibition (Acetylcholinesterase (ACHE, Homo sapiens, UniProt P22303); enzyme activity).
The ΔH of COc1cc(/C=C/c2cc(/C=C/c3ccc(O)c(OC)c3)n(-c3ccc(Cl)cc3Cl)n2)ccc1O is reported as -23.69 ± 0.196 kcal/mol (haemin; binding, isothermal titration calorimetry; pH 7.4, 37 °C).
For CC1=C(/C=C/C(C)=C/C=C/C(C)=C/C=C/C=C(C)/C=C/C=C(C)/C=C/C2=C(C)CCCC2(C)C)C(C)(C)CCC1, “Stern-Volmer quenching constant” read 9200 ± 700 L/mol (Beta-lactoglobulin (LGB, Bos taurus, UniProt P02754); fluorescence quenching; 308 K).
With CN1CCCCC1Cc1cn(Cc2ccc(C(=O)N3CCC(C#N)CC3)cc2)nn1 (stereo not drawn) the SPR response was -2.7 RU and -8.7 RU (WD repeat-containing protein 91 WD40 domain, residues 392–747; binding, SPR single-concentration screen; 45 µM).
With NC(=O)CC[C@H](N)C(=O)O the product formation was 2.28 µM (N-alpha-acetyltransferase 80 (NAA80, Homo sapiens, UniProt Q93015); substrate, DTNB; 2 mM, 30 min, 37 °C, together with: acetyl-CoA 500 µM).
Oc1ccc(/C=C/c2cc(O)cc(O)c2)cc1 — result for “ΔG of binding”: -8.41 kcal/mol (O-methyltransferase (Sorghum bicolor, UniProt A0A1B6PFV1); concentration not given, together with: ADN+).
CCn1c(=O)[nH]c2cc(C(=O)NC(c3ccc(F)cc3)c3cnn(C)c3)ccc2c1=O (stereo not drawn) gave an SPR response of 1.5 RU (WD repeat-containing protein 91 (Homo sapiens, UniProt A4D1P6); binding, SPR steady state; 0.1172 µM).
COc1cc([C@@H]2c3cc4c(cc3[C@@H](O[C@@H]3O[C@@H]5CO[C@@H](C)O[C@H]5[C@H](O)[C@H]3O)[C@H]3COC(=O)[C@H]23)OCO4)cc(OC)c1O gave an inhibition of 2% (Genome polyprotein NS3 helicase domain; DNA binding, inhibitor; hepatitis C virus; 100 µM, together with: Cy5-dT15 DNA).
CCCCC[S+]([O-])c1n[nH]c(N)n1 (stereo not drawn) has a fold enrichment of 0.874 (Transducin-like enhancer protein 4 (TLE4, Homo sapiens, UniProt Q04727); binding, affinity selection mass spectrometry; reference: other proteins in batch).
With N#Cc1cccc2c1CC[C@H]2NC(=O)c1ccc(OCc2nc3ccccc3s2)cc1 the SPR response was -16.9 RU and -8.4 RU (WD repeat-containing protein 91 WD40 domain, residues 392–747; binding, SPR single-concentration screen; 45 µM).
The inhibition of Brc1c(Br)c(Br)c2[nH]cnc2c1Br is reported as 0% (Genome polyprotein NS3 helicase domain; DNA binding, inhibitor; hepatitis C virus; 100 µM, together with: Cy5-dT15 DNA).
Under “thermal stability ratio”, O=C(COP(=O)(O)O)[C@@H](O)[C@H](O)[C@H](O)COP(=O)(O)O is recorded as 0.464 and 0.6 and 0.85 (Villin-1 (Homo sapiens, UniProt P09327); thermal proteome profiling, measured: VIL1; HepG2 cell lysate; concentration not given, 57 over 37 °C; reference: compound over control).
For CC[C@H](C)[C@H](NC(=O)[C@H](CCCCN)NC(=O)CNC(=O)[C@@H](NC(=O)[C@@H](NC(=O)[C@H](CCSC)NC(=O)[C@H](Cc1c[nH]cn1)NC(=O)CN)[C@@H](C)O)C(C)C)C(=O)N[C@@H](Cc1ccc(O)cc1)C(=O)N[C@@H](C)C(=O)N[C@@H](C)C(=O)N[C@@H](CCSC)C(=O)N[C@@H](CCSC)C(=O)N[C@H](C(=O)N[C@@H](CCSC)C(=O)N[C@@H](CCC(=O)O)C(=O)N[C@@H](Cc1ccc(O)cc1)C(=O)N[C@@H](Cc1ccc(O)cc1)C(=O)N[C@@H](CCCNC(=N)N)C(=O)N[C@@H](CCC(N)=O)C(=O)N[C@@H](CO)C(=O)N[C@@H](CCCCN)C(=O)N[C@@H](C)C(=O)N[C@@H](CCCCN)C(=O)N[C@@H](CCCCN)C(=O)N[C@@H](CC(C)C)C(=O)N[C@@H](CCC(N)=O)C(=O)N[C@@H](C)C(=O)N[C@@H](CCSC)C(=O)N[C@@H](CCCNC(=N)N)C(=O)O)[C@@H](C)CC, the ΔH was -4.31 ± 0.35 kcal/mol (Calmodulin-1, Ca2+-bound C-lobe (CALM1, Homo sapiens, UniProt P0DP23); binding, isothermal titration calorimetry; pH 7.4, 15 °C, C-lobe, CaV2.1 IQ domain, together with: Ca2+).
C=C1C(=O)O[C@@H]2C[C@@]3(C)CCCC(=C)[C@@H]3C[C@H]12 has an activation of 0.96 fold (Nuclear receptor subfamily 4 group A member 3, ligand-binding domain (Homo sapiens, UniProt Q92570); reporter gene, Gal4 hybrid reporter; 10 µM; reference: vehicle).
The selectivity ratio of Oc1ccc([C@H]2COc3cc(O)ccc3C2)cc1 is reported as 2.6 (ESR1; array formation; PRL-HeLa; reference: EC50 ERβ over EC50 ERα).
O=C1CC[C@H](N2Cc3c(ccc4c3OCC43CCN(C[C@@H]4CCC5(CCN(c6ccc([C@@H]7c8ccc(O)cc8CC[C@@H]7c7ccccc7)cc6)CC5)OC4)CC3)C2=O)C(=O)N1: “lowest concentration reducing ER” 0.3 nM (ESR1; degrader, Western blot; MCF7; 4 h).
N[C@@H](CC(=O)O)C(=O)O gave an inhibition of 0% (Genome polyprotein NS3 helicase domain; DNA binding, inhibitor; hepatitis C virus; 100 µM, together with: Cy5-dT15 DNA).
The FP signal of N#CCCN(C(=O)CCl)c1ccc2c(c1)OCCO2 is reported as 94.6% (14-3-3 protein sigma, with ERα phosphopeptide (SFN, Homo sapiens, UniProt P31947); binding, fluorescence polarization; covalent ligand screen, together with: phosphorylated ERalpha peptide; reference: control).
For O=C(O)/C(=C/c1c(C(=O)O)[nH]c2cc(Cl)cc(Cl)c12)c1ccccc1, the inhibition was 0% (Genome polyprotein NS3 helicase domain; DNA binding, inhibitor; hepatitis C virus; 100 µM, together with: Cy5-dT15 DNA).
For COc1c(O)cc2oc(-c3ccccc3)cc(=O)c2c1O, the selectivity ratio was 0.44 (ESR1; array formation; PRL-HeLa; reference: EC50 ERβ over EC50 ERα).
CCCCCCCCCCCCCCCCCCNC(=O)OCC(COP(=O)([O-])OCC[n+]1ccsc1)OC (stereo not drawn) gave an inhibition of 0% (Genome polyprotein NS3 helicase domain; DNA binding, inhibitor; hepatitis C virus; 100 µM, together with: Cy5-dT15 DNA).
NC(=O)C1=CN([C@@H]2O[C@H](COP(=O)(O)OP(=O)(O)OC[C@H]3O[C@@H](n4cnc5c(N)ncnc54)[C@H](OP(=O)(O)O)[C@@H]3O)[C@@H](O)[C@H]2O)C=CC1 gave a kcat of 11.6 ± 0.88 s⁻¹ (ancestral FSP1; oxidoreductase activity, substrate; together with: co-substrate 100 µM fixed).
CC(=O)NCCc1c[nH]c2ccc(O)cc12 has an inhibition of 0% (Genome polyprotein NS3 helicase domain; DNA binding, inhibitor; hepatitis C virus; 100 µM, together with: Cy5-dT15 DNA).
COc1ccc(C(=O)Nc2ccc(N3C4CCC3CN(c3ccccn3)C4)cc2)cc1: binding “no binding” (GPCR panel; off-target binding panel; concentration not given).

A few entries again:
For O=c1ccn([C@@H]2O[C@H](COP(=O)(O)OP(=O)(O)O)[C@@H](O)[C@H]2O)c(=O)[nH]1, the koff was 1050 ± 60 s⁻¹ (Histo-blood group ABO system transferase (ABO, Homo sapiens, UniProt P16442, G235S/G268A/L266M/R176G/W181M); methyl-TROSY NMR titration lineshape analysis; apo mutant enzyme).
NC(=O)C1=CN([C@@H]2O[C@H](COP(=O)(O)OP(=O)(O)OC[C@H]3O[C@@H](n4cnc5c(N)ncnc54)[C@H](OP(=O)(O)O)[C@@H]3O)[C@@H](O)[C@H]2O)C=CC1 gave a kcat of 11.6 ± 0.88 s⁻¹ (ancestral FSP1; oxidoreductase activity, substrate; together with: co-substrate 100 µM fixed).
COc1cc(/C=C/C(=O)C(=Cc2ccc([N+](=O)[O-])cc2)C(=O)/C=C/c2ccc(O)c(OC)c2)ccc1O has a ΔG of -33.5 ± 1.85 kJ/mol (haemin; binding, isothermal titration calorimetry; pH 7.4, 37 °C).
Oc1ccc(/C=C/c2cc(O)cc(O)c2)cc1 — result for “ΔG of binding”: -8.41 kcal/mol (O-methyltransferase (Sorghum bicolor, UniProt A0A1B6PFV1); concentration not given, together with: ADN+).
